# Results from different studies.
# Numbered parts are unrelated; each lists some results of a single study.

# Sample 1 — technique: RNA Bind-n-Seq; molecule type: RNA; matrix: in vitro; concentration: 200 nM; setting: whole 134-nt RNA, ends assumed; added: 150 mM KCl; reference: input library; direction: higher = stronger binding
# Target: Fragile X messenger ribonucleoprotein 1, C-terminal low-complexity region (Fmr1, Mus musculus, UniProt P35922)
# Shared flanks, not repeated: GGGAGUUCUACAGUCCGACGAUC … UGGAAUUCUCGGGUGUCAAGG
Sequence,log2 enrichment
CUGUGCUACACAUCGUAUGUACCGAAUCGGGCCCCCCCGGGCCCCCCCGGGCCCCCCCGGGGAAAGUAUUAUGUUACGCCGUUCGGAUCU,-1.35
CACAGACAACACGCACCCACACAGACACAGAGGGAAGGGGUUGGGAUGGGGACAGGGUGCACAACAGGGCGGGGUAGGACCCCAGCCCCU,1.27
UAACUUUAGAGGAGGAUCUGAUGGAUAUGGCAGUGGACGUGGAUGUGGGGAUGGCUAUAAUGGGUAUGGAGGAGGACCUGGAGGUGGCAA,0.287
CACAGACAACACGCACGCACACAGACACAGAGGGAAGGGGUUGGGAUGGGGACAGGGUGCACAGCAGGGCGGGGUAGGACCCCAGCCCCU,1.06
CACAGACAACACGCACCCACACAGACGCAGAGGGAAGGGGUUGGGAUGGGGACAGGGUGCACAGCAGGGCGGGGUAGGACCCCAGCCCCU,1.16
CUCAAGUCCUGUGCUACACAUCGUAUGUACCGAAUCGGUUGGGUUGGUUGGGGAAAGUAUUAUGUUACGCCGUUCGGAUCUGCACUUCCA,0.261
UUCUCUAAGAGGAACUCCGGCGCGUCAGAGUAACAGAAGCGAGAGCACAGACAGUCUUGGGGGCUUGUCUCCCUCUGAAGUCACAGCCAU,-0.0579
UGGCCCUGGUGGCAUGCGGGGAGGAAGAGGUGGCCUCAUGGAUCGUGGUGGUCCCGGUGGAAUUUUCAGAGGUGGCCGUGGUGGAGACAG,0.185
CCUCAAGUCCUGUGCUACACAUCGUAUGUACCGAAUCGGGGUGGGGUGGUGGGAAAGUAUUAUGUUACGCCGUUCGGAUCUGCACUUCCA,1.22
AAGUCCUGUGCUACACAUCGUAUGUACCGAAUCGGGCCCGGGCCCGGGGCCCGGGGAAAGUAUUAUGUUACGCCGUUCGGAUCUGCACUU,-0.823
GAGGAGACUCUGCGCAGAGCACUUUGGGUCCGGAGGGCGAGACUCCGGCGGAAGCAUUCCCGGGCGGGUGACCCAGCACGGUCCCUCUUG,-1.29
GCAGGAACUAAAAACAAAUGGAAAUGCUUCGGAUAGUGGCAGGGGUGGGGGUUGCUAAGGAAAGGGUGGGAUGGGAGUGGGUAAAGAGUU,0.559
AGAGAAAAGGAACAGUUCCGUAAGCUCUUUAUUGGUGGCUUAAGCUUUGAAACCACAGAAGAAAGUUUGAGGAACUACUACGAACAAUGG,-1.96
ACCAUGCAGGUGGGCAUCUUUGGGAAGAGGGGCAAGGGGGGGAUAGGGAGGGGGGUAACACUUUGGGAACAGGUGGUCCCAGGUCGUUUC,0.994

# Sample 2 — technique: RNA Bind-n-Seq; molecule type: RNA; matrix: in vitro; concentration: 365 nM; reference: no-protein control; direction: higher = stronger binding
# Target: RNA binding protein fox-1 homolog 2, RRM domain, GST-SBP tag (RBFOX2, Homo sapiens, UniProt O43251-10, residues 100-194)
# Setting: natural RNA segment, single round, ends assumed
# Shared flanks, not repeated: GGGAGUUCUACAGUCCGACGAUC … UGGAAUUCUCGGGUGCCAA
# Construct (chain): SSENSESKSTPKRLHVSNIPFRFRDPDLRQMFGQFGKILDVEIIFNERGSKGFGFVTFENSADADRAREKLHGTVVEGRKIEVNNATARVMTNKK
Sequence,RBNS enrichment (R)
UUGGGAAUCCACAUUUUUUGGGGGAAUGGAAAAGCUCUGUCUCCCUAACUCAACUGCUUUGCAAGGGGAAAUCAAGCUGGGAGAAUCUUUUUCUGGCCACCUGUGGGGUA,0.241
GAUAUCAAGUUUCUUCAUAUCAAAGCUUCAUUGGUGACCUCAUUUGCUUUACAAGUGACCAGCCAUCUUGCAGGCUUCAUGCUUCUGAGAGCCUUACUUAGAAGAUGCUG,0.222
CCCCAGCAUCACUCCCCAAGGAAGAGCCAAUGUUUUCCACCCAUAAUCCUUUCUGCCGACCCCUAGUUCCCUCUGCUCAGCCAAGCUUGUUAUCAGCUUUCAGGGCCAUG,0.824
AUUCUGGAAUAGAGAGUAUUUUAAAUUGAAAUGACCAAAUUCGAUUUAAAACAAACACAUAACAAUCUUCAGUAAAGUUAUUUGAACCUGUGGUUGACAAUUCUGUAUUG,0.353
UGUGUUUAAGUUCUCGUAUCCUUGGUGGACACGGACACUAAGAAUCAACUAUGUAGUUGAUUUUUUUUUGCCAGAAAUUAUAAGUAUUCUACAAUAAAUCUUUAAAUUUG,0.381
GCUCUGAAGGAUCCUGGAACCACUGAUUUUGGUUUAUUCCCUCCAGGGUCUAAAGAGAACAAGAGGUGCUAGCUCUUACCAAAACAGAUGGUAGAGAGAGUUGCUGGCUA,0.354
CAAUGUUCGUCUCUGCCCUGAUGCUGCCUCAGGAUCCCCCAUUCCCCACCCUGGGAGAUGAGGGGGUCCCCAUGUGCUUUUCCAGUUCUUCUGGAAUUGGGGGACCCCCG,0.283
CUAUAUUGAUAUUAGAAGAUAUUUGUUUUUUAAAAUAUAUUGAUGUAUGAUAAAGAUGAUCUAAUUUGUGAAUGCAUAUGUAUGUGUGGUUACUUUUUAUAAUGUGAAAU,0.8
GCAAAAGCACAGACGUUCAUGUUUUCUAUCAUGUAAAAUCCUGUAGUUAAGCUGUAUAUUAGCAGUGAAGGUGUUAGAGAGAUGAGAUGAUGGUUUGAAAGUGUGUUGAA,2.05
AGCAAGUUCCAUGAUAUUAAAUCCAGGUCUGCAUUGGCCCGGGGCAAGAGUUUAACAUCUUCGGCCCUGCAUUCCUACAUCUUGUGUCUGUACACGUUCUUAAGCAGCGU,0.525
AUUCCUCAGGGACAGGUACCUGUACCUACCCCGAUUCCAAACCUACCUGCCUGGUGAGAACUCCUGCCCCUGCCUACAAAGGGUACACAACCUACCCAUCAUCCCUAGUG,0.542
AGUAAGAAUGUUGCAUGUGAGAGAAGGGAUGUGACUGUGGACUCAGAUUGACACACACAGAUUGGUGGAAGAAUAGCUUCAGUCCUCUUCCUUCAUCCCAUAUGUAGGUA,35.7

# Sample 3 — technique: protein binding microarray; molecule type: double-stranded DNA, one strand shown; matrix: in vitro; concentration: not given; reference: not given; direction: higher = stronger binding
# Target: Histone acetyltransferase KAT6A, winged helix 2, GST fusion (KAT6A, Homo sapiens, UniProt Q92794, residues 85-181)
# Setting: 8-mer, flanks averaged, mean of 2 arrays, mostly near background
# Construct (chain): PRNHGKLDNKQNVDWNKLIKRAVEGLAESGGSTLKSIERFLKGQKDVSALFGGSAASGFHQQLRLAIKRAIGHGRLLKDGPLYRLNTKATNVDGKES
Sequence,E-score
ACTGCACA,0.0987
CTCTGCAA,0.0175
ACTTTGTA,0.00342
CAAGTCGA,0.0146
CTGAAGGA,-0.0687
GCGCCATA,0.094
AGGGGACC,0.0559
ACGTTTAT,-0.109
GAAGTCCC,-0.287
ATCGTCCG,0.142
ATTGCTTA,0.0235
GAGCTGCC,0.0451
CACCTTGG,-0.11
AGAGATGC,-0.0121
GCATACTA,0.0475
CAAATCAC,-0.0114
AGATCTCG,-0.0328
GGGTGCAA,0.1
ACGTAATA,-0.227
TCTTTTAA,0.126
CAAACGAC,0.23

# Sample 4 — technique: RNAcompete; molecule type: RNA; matrix: in vitro; concentration: 20 nM; setting: 7-mer, probes averaged, single round; reference: mean of 7-mers; direction: higher = stronger binding
# Target: PABPC1L2, full length, GST fusion (mouse, UniProt A0ABA7IW68)
# Residues (chain): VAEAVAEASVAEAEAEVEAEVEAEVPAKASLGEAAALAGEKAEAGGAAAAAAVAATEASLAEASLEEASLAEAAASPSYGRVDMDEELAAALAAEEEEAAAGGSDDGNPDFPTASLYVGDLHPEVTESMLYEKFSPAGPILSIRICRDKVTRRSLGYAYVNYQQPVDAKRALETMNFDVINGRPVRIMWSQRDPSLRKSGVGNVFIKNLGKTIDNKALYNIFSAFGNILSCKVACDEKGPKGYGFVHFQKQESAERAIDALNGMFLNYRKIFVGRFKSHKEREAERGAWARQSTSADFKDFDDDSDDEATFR
Sequence,7-mer Z-score
UAUCACU,-0.144
CGUGAGU,-0.371
AUCCGGA,-0.142
UUUAGAA,0.296
AGCUCGA,-0.289
UGGUUUA,-0.36
GUGCUGU,-0.13
CUAUUCC,-0.402
CGGCUAG,-0.148
CCCACGA,-0.26
GGUAAGG,0.133
UUUGAGA,0.00979
ACUGUUU,-0.371
CAGAUCG,-0.021
GGUACUG,0.0243
CCCACUG,-0.34
UCAUCCA,-0.296
GUCGUAU,-0.354
AACAUAU,0.568
ACGAAGC,-0.0283
GAGUGUC,-0.242
AAUCUUC,-0.235
UAGUUCG,-0.347
CACAUCU,-0.295
ACGGGGA,0.236

# Sample 5 — technique: RNA Bind-n-Seq; molecule type: RNA; matrix: in vitro; concentration: not given; reference: input RNA pool; direction: higher = stronger binding
# Target: RING finger protein unkempt homolog, zinc fingers 1-6, GST-SBP tag (UNK, Homo sapiens, UniProt Q9C0B0, residues 30-357)
# Setting: RNA with constant flanks, human-mouse chimeric sites, ends assumed
# Shared flanks, not repeated: GGGAGUUCUACAGUCCGACGAUC … CAACAGAGGAUUGAGCAUCA
# Target sequence (chain): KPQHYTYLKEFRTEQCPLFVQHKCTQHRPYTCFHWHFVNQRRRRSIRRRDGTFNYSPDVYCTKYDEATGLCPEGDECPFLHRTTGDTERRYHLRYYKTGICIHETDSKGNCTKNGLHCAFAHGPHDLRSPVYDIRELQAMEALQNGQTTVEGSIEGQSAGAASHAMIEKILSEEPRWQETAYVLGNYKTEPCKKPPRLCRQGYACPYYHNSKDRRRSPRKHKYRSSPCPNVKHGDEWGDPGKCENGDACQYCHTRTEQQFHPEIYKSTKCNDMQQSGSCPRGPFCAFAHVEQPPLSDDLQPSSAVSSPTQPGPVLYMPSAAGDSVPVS
Sequence,bound/input enrichment
CUGGCCUGGCCCUCCCCAGGGGCCUCCUUCUCUGCAUUAACUGUCAGUGCAUCAGAUACUUUCAGCUGCAACUCCCUACUGGGUGGGGCACCCAUUUCAGGCAGAAGGUUUUGGUACCCU,0.28 ratio
UCCCAAAUCCAGCAGCUAGAAGGAGCCUUGAGACAAACACUCCACACGCAGGGAGGGCAAUAGCUUUGUACAUUGGUUUACAUUUUUUCCCCCUGUGGAUUUUUCUAGAGGUCAUAGUGC,0.86 ratio
UCGGAUGCUGUGCUGGGUCACUUUUCAUAUCCAGAUCCUUCACAGUGGACAGAUGAAGAACUGGGAAUCCCUCCUGAUGACGAGGACUGAAGGUGUAGACUCAGCCUACGAGUAGGAGCA,0.155 ratio
AAUUUCCUGUCAUACUUUUUAGACAUUCACAUCAGACUUACAGAGCACCUGGCCACAUUCUAGGUUUGAAUUAUUUCUCAGCUAUGGGGGUAUGAUUAUGAGAACACUGCUUAACUAAUG,1.5 ratio
CAGACUGUGUCAUACUUUUUAGACAUUCACAUCAGACUUACAGAGCACCUGGCCACAUUCUAGGUUUGUGUUAUUUCUCAGCUAUGGAUAUGAUCAAAUGAGAACACUGGCAGCCAGAUG,0.981 ratio
UCAGGAACUCAGACAAACAUGAAUGUAAAUGAAGUCAUUAGCAACAGAGCAAUUGAAAUGUUAGGAGGUGAACUUGGCAGCAAGAUACCUGUGCACCCCAAUGAUCAUGUUAACAAAAGC,0.263 ratio
AGGAGGAGGUUAAAGGGUGAGAGUGGGGUGGAAGACUGUGUCAUGGCCCUAGAAACCCUGUUCAGUGUCCUGCUUUCUCUUUGCAGACUGAUGGCCCCUUACACGCCCUUUCUGACUGAG,0.0487 ratio
UUACUUUUAACUCCAUGGGUCAAGUUCCUGUGGGAAUCAUACAGGCAGUGUUUGGACCUUCUUCGAAACAAUUCUAGAGUAGAGCGCCUUUACCAUGAUAUCGCCCAACAAGCUUUCAAA,0.263 ratio
UUGAAAACUGAUUCAAGUAAGUUUGAGUAUCACAAUGUUAGCUUUCUAAUUCCAUAAAAGUACUUGGUACAGUUUCUAACCCCACAUACAUCACCCCAGCGCCAUUUGUAAAGAGCAACU,0.616 ratio
GAUCUCGGGCCCUCCCCAGGGGCCUCCUUUCGUAUAGUCACUGCUUCUGCAUCAGAUACUUUCAGCUGCAACUCCCUACUGGGUGGGGCACCCAUUUGAGGCAGGGUGUUUUGGUACCCU,0.352 ratio
UGUAGUUGAUCCCCUGCUCAUUUUUCUCUUUUCUUUCAGAUCGUCAGGAAAAGCCUAAAGAUUAGGUUGUAAGAAAAACAGAAGCCAUGUUUCGAAGACCUGUGUUACAGGUAUUUCGUC,0.163 ratio

# A few entries again (sample 4):
Sequence,7-mer Z-score
CGUGAGU,-0.371
UUUGAGA,0.00979
UAGUUCG,-0.347
ACGGGGA,0.236
UGGUUUA,-0.36
UAUCACU,-0.144
CCCACGA,-0.26
CAGAUCG,-0.021
AACAUAU,0.568
GUGCUGU,-0.13
